Assay results gathered from unrelated publications.
Each numbered part is a random draw from the data of one study; scales do not carry over between parts.

Series 1 — method: RNA Bind-n-Seq; form: RNA; sample: in vitro; tested at: not given; reference: input RNA pool; reading: higher = stronger binding; endpoint: bound/input enrichment
Target: RING finger protein unkempt homolog, zinc fingers 1-6, GST-SBP tag (UNK, Homo sapiens, UniProt Q9C0B0, residues 30-357)
Setting: RNA with constant flanks, human and mouse sites, ends assumed
Construct (chain): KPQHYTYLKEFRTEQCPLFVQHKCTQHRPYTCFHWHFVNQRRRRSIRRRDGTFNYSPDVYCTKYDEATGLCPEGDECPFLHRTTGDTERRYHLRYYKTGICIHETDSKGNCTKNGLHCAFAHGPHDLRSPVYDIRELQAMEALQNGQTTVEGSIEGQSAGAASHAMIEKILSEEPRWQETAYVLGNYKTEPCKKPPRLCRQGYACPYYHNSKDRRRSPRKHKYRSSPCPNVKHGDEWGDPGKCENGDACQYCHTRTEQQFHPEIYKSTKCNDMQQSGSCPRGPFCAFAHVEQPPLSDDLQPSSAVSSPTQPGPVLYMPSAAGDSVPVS
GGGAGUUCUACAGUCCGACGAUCCCCAACCACUCUGUGGUGAAGCUACGCAAUGCAGGCCAUGCCUGUUACCUCCACAAGCCGCAAGACUUCCACCUUGUCCUGCUUGCCUUCCUUGACCAUCUACCUUGAACUAACCCACUCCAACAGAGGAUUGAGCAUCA: 0.334 ratio
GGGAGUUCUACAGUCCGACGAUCAUAAUAAAUUAAAUAAUUGGAUCCUAGGCAUACCAAUAAAUGUUAUUUGGGGAAAGAAGCUAGCACUAUCUCAUGCAGUGAGAAUAACGGGUUCUAGUGAAUUAUCCUAUCUACACUACCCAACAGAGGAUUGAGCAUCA: 0.447 ratio
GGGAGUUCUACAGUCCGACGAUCAAUCAGGCAAAGAAAGGGGGUGUAAGUUGUGGGACCAGUUUUAGAGGGACAGUUGGACGGACUAGAGAUUACACUGUUUUACAUCCAUCUUGCUUGUCAGUUUGUAAUGUUACCAUACAGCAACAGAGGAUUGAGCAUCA: 1.07 ratio
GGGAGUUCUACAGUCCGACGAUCUGCUGGAAGCCCAUGAUAUGACAGAAGUAGGCCUCUGAAGCUAUUCUGGUGUCUCACUCUGUCCUUUCUCCUUCUGUGCUUGGAGCCAACAUCUGGAGGGGCCUCGAGGCCUGCCAAGCACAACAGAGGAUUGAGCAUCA: 0.0509 ratio
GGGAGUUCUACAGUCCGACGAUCCCAGAACUUGAUAAUGAAAAGCCAGCUGCUGUGGUUGCUCCUCUUACAACAGGAUACACCGUGAAAAUCAGUAAUUAUGGAUGGGAUCAGUCAGAUAAGUUUGUGAAAAUCUACAUUACCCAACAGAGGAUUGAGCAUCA: 0.246 ratio

Series 2 — observed: enzyme activity; mode: inhibitor; setting: no DTT; endpoint: IC50
Target: Replicase polyprotein 1ab, main protease (rep, Severe acute respiratory syndrome coronavirus 2, UniProt P0DTD1)
N=c1c[n+](N2CCOCC2)[n-]o1: > 20 µM
COC(=O)C1=C(C)NC(C)=C(C(=O)OC)C1c1ccccc1[N+](=O)[O-]: 6.6 µM
C[n+]1c2cc(N)ccc2cc2ccc(N)cc21.Nc1ccc2cc3ccc(N)cc3nc2c1: 1.9 µM

Series 3 — cell line: HEK-293T/ACE2; tested at: concentration not given; time: 16 (unit not given); reference: vehicle; endpoint: viability
CCOC(=O)C1=C(COCCN)NC(C)=C(C(=O)OC)C1c1ccccc1Cl (stereo not drawn): 89.3%
O=S(=O)(O)Oc1ccc(C(c2ccc(OS(=O)(=O)O)cc2)c2ccccn2)cc1: 103%
CC(=O)c1ccc2c(c1)N(CCCN1CCC(CCO)CC1)c1ccccc1S2: 104%
COc1ccc([C@@H]2Sc3ccccc3N(CCN(C)C)C(=O)[C@@H]2OC(C)=O)cc1: 105%

Series 4 — observed: helicase ATPase activity; organism: SARS-CoV-2; tested at: 20 µM; endpoint: inhibition
Target: Replicase polyprotein 1ab, nsp13 helicase (rep, Severe acute respiratory syndrome coronavirus 2, UniProt P0DTD1)
C=CC(=O)c1ccc2ccccc2c1: 106%
CC(C)n1nc(C#Cc2ccccc2)c2c(N)ncnc21: 106%
Cc1ccc(-n2sc(=O)n(Cc3ccc(F)cc3)c2=O)cc1: 107%
Nc1nnc(Sc2ncc([N+](=O)[O-])s2)s1: 108%
O=C1C=CC(=O)C2=C1C1c3ccccc3C2c2ccccc21: 108%
O=[N+]([O-])C=Cc1ccc2c(c1)OCO2: 101%
N#CSc1cc(SC#N)c(N)nc1N: 106%
CC(C)(C)c1ccc(S(=O)(=O)/C=C/C#N)cc1: 106%
CC(C)N[C@@H]1CCn2c(=O)[nH]c3cccc(c32)[C@H]1O: 99.6%
O=C1C=Cc2cc(Br)ccc2C1=O: 108%
CC(=O)[O][Pt]([NH2])([Cl])([Cl])([NH]C1CCCCC1)[O]C(C)=O: 108%
CCn1c(N)c(C(=O)NC)c(=O)c2ccc(C#C[C@@](C)(O)COC)nc21: 106%
CCC(C)SSc1ncc[nH]1 (stereo not drawn): 108%
C[CH2][Hg][S]c1ccccc1C(=O)[O-].[Na+]: 105%
O=C(O)c1ccc(SSc2ccc(C(=O)O)cn2)nc1: 106%
O=C(Nc1ccc2c(O)cc(S(=O)(=O)[O-])cc2c1)Nc1ccc2c(O)cc(S(=O)(=O)[O-])cc2c1.[Na+].[Na+]: 57.5%

Series 5 — method: RNA Bind-n-Seq; form: RNA; sample: in vitro; tested at: 200 nM; setting: whole 134-nt RNA, ends assumed; together with: 150 mM KCl; reference: input library; reading: higher = stronger binding; endpoint: log2 enrichment
Target: Ras GTPase-activating protein-binding protein 1, full length (G3BP1, Homo sapiens, UniProt Q13283)
Sequence of UniProt Q13283 (whole entry, looked up): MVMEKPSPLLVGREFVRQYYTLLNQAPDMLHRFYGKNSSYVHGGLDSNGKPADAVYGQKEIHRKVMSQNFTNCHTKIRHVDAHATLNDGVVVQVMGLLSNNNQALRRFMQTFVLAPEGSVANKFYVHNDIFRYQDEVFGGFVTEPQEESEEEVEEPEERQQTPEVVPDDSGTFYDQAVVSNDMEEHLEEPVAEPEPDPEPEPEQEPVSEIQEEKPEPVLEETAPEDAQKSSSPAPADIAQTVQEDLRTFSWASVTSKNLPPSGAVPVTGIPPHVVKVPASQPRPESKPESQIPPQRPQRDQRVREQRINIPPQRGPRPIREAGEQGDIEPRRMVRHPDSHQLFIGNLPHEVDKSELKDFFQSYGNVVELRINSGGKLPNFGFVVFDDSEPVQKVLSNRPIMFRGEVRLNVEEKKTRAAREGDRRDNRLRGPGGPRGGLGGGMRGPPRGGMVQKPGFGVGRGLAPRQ
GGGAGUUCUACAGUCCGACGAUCAAACUUUAGAGGAGGAUCUGAUGGAUAUGGCAGUGGACGUGGAUUUGGGGAUGGCUAUAAUGGGUAUGGAGGAGGACCUGGAGGUGGCAAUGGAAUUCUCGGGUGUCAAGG: 0.457
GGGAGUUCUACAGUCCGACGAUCCUGUGCUACACAUCGUAUGUACCGAAUCGGGAAAAAAAGGGUUUUUUUGGGUUUUUUUGGGAAAGUAUUAUGUUACGCCGUUCGGAUCUGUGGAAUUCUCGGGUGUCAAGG: -1.39
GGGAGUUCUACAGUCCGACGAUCAGUCCUGUGCUACACAUCGUAUGUACCGAAUCGGGUUUUUGGGAAAAAGGGAAAGGGAAAGUAUUAUGUUACGCCGUUCGGAUCUGCACUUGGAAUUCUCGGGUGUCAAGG: -0.3
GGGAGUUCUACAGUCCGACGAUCAGUCCUGUGCUACACAUCGUAUGUACCGAAUCAAAUUUAAACCCCCAAACCCCCAAAAAAGUAUUAUGUUACGCCGUUCGGAUCUGCACUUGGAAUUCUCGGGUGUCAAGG: -0.551
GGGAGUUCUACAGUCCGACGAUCAAGUCCUGUGCUACACAUCGUAUGUACCGAAUCGGGUUUUUUUGGGAAAGGGUGGGAAAGUAUUAUGUUACGCCGUUCGGAUCUGCACUUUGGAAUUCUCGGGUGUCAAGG: 0.11

A few entries again (series 4):
O=[N+]([O-])C=Cc1ccc2c(c1)OCO2: 101%
N#CSc1cc(SC#N)c(N)nc1N: 106%
CC(C)(C)c1ccc(S(=O)(=O)/C=C/C#N)cc1: 106%
CC(C)N[C@@H]1CCn2c(=O)[nH]c3cccc(c32)[C@H]1O: 99.6%
O=C1C=Cc2cc(Br)ccc2C1=O: 108%
